Measurements pooled from the literature.
Numbered parts are unrelated; each lists some results of a single study.

Series 1
Target: Histone acetyltransferase KAT6A, both winged helices, GST fusion (KAT6A, Homo sapiens, UniProt Q92794, residues 1-181)
Method: protein binding microarray
Form: double-stranded DNA, one strand shown
Sample: in vitro
Concentration: not given
Notes: 8-mer, flanks averaged, mean of 2 arrays, mostly near background
Reference: not given
Direction: higher = stronger binding
Target sequence (chain): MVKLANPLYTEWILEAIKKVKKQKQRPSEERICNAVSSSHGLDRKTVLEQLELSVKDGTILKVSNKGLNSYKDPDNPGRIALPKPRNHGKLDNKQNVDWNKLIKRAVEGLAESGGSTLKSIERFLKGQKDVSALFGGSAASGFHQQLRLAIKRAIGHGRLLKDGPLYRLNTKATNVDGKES
`CAGACATG` has an E-score of -0.0374.
`TAAGCTCA` has an E-score of -0.113.
`AATTGGGA` has an E-score of -0.063.
The E-score of `GATTTGGC` is reported as -0.142.
For `GCGGGCTA`, the E-score was 0.187.
With `AGTCGAGG` the E-score was -0.141.
`CTGCTCCC` gave an E-score of -0.0139.
The E-score of `GACTGCCC` is reported as 0.102.
The E-score of `CCATGTCA` is reported as -0.0791.
The E-score of `AGGTGAGG` is reported as -0.0874.
The E-score of `GTAAGTGA` is reported as -0.0752.
The E-score of `TAAAGCCA` is reported as -0.0818.
`GCGAGCCA` gave an E-score of -0.0573.
`AGAAAACT` gave an E-score of -0.292.
For `ACCATTTA`, the E-score was -0.0848.
`CATGAGCG` gave an E-score of 0.233.
`GCGCTTCC` gave an E-score of 0.34.
For `CGAGATCC`, the E-score was 0.0756.
`ACGCGCGC` has an E-score of 0.392.
`AGCGTAGG` gave an E-score of 0.0511.
`GAACAGCC` gave an E-score of 0.00513.
`TCAATCCA` gave an E-score of -0.144.
With `CCTAATCA` the E-score was -0.237.

Series 2
Target: RNA binding protein fox-1 homolog 2, RRM domain, GST-SBP tag (RBFOX2, Homo sapiens, UniProt O43251-10, residues 100-194)
Method: RNA Bind-n-Seq
Form: RNA
Sample: in vitro
Concentration: 365 nM
Notes: natural RNA segment, single round, ends assumed
Reference: no-protein control
Direction: higher = stronger binding
Residues (chain): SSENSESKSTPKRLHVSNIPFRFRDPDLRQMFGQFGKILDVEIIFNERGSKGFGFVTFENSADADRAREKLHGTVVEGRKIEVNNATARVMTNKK
`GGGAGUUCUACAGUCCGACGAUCCGUUCUGUUAACCUUUGUACCAAAUAGCAAUAAAAACGAGUGGGAGCCGUUGGGCGGUGCGCCAGAGGGACUGAAAUCUAUUUUGUCCCUAAAUAUUUUUUUAAAGAAUUUGGAAUUCUCGGGUGCCAA` — result for “RBNS enrichment (R)”: 0.49.
`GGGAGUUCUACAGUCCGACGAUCAAAGAUUCUUAAUCAAGAGUUUCAGAGUUUAGAAACUCGGAUGUUGGGCAAGUUAGGAAAUAUUCCACCAGCAAAAUUAACAUUACCAGCCAUCUCUGCAAAUGCUCCUGUGGAAUUCUCGGGUGCCAA` — result for “RBNS enrichment (R)”: 0.468.
For `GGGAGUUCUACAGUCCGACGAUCUUUUUUUUUUGCAUCAUUUGUCUUUAAUAUUCAUAAUGUCAUGUGCUUAAAAGUGAGCUUGAAACGUGUGCUUACUAUCUCAUCUCUUCCCUAGUCUUAGUAUUGGACGCUGGAAUUCUCGGGUGCCAA`, “RBNS enrichment (R)” read 0.49.
For `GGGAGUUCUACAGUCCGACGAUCAGGAUCCCUGACCCUAGCGAUACUUAACAGUUCUUCCCAUGUCCUAUGGUAUCUGUGCUUUUGGCUGGGUAAAAGUACAGCCAGAGACGGCUUACUGGGUUUAGAAUGGAUGGAAUUCUCGGGUGCCAA`, “RBNS enrichment (R)” read 0.391.
For `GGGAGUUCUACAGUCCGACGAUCAGGAGAGACCUUAUUCCAAAGCACGAUUGCAGAAGGGGAAAGGGAAUAUUGCAAAAGGGAGAGGAAGGGGCCUUAUGGGAAUAGUGAAAAGGCUCAGACCGACCGAUGGCUGGAAUUCUCGGGUGCCAA`, “RBNS enrichment (R)” read 1.82.
`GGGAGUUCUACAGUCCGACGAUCUAGACCCUUCAUCUCUUACUUGAUAGACUUACUAAUAAAAUGUGAAGACUAGACCAAUUGUCAUGCUUGACACAACUGCUGUGGCUGGUUGGUGCUUUGUUUAUGGUAGUUGGAAUUCUCGGGUGCCAA` — result for “RBNS enrichment (R)”: 0.38.
For `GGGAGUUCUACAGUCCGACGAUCUUGCUUCCCUCUCCUGUCUUUCCCACUGGAGCCGCCCAAGCUUGUAGGUGGGUGGUGUGCAUAGGCCACGUGUGCCCCACAUAUGCAGGGGGUGCCCCACACAGCUAGAGUGGAAUUCUCGGGUGCCAA`, “RBNS enrichment (R)” read 1.22.
`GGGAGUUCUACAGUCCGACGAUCAACCAGGCCCUGAUGUAGGGGUCGUCCGCUCAGGCUGCCCCCUUGGGCUCUUGCAGCUCUUGUUCAGGUAGUCGCCCUUCUGGUUUGUUCUCUGUGGGGCAGUUGGUGGGUGGAAUUCUCGGGUGCCAA`: “RBNS enrichment (R)” 0.368.
Under “RBNS enrichment (R)”, `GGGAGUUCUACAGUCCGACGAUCUUUUGAUUAUUCCUCUAAGAUGAGCUUCUGGGAACAGUAUCACCAAAUGUCCCAAACAUUUAAGCUAGAGUUAGUUCUUGAUGUUGUAUACCUAAGCCCAUAAUCGAGCUUGGAAUUCUCGGGUGCCAA` is recorded as 0.249.
`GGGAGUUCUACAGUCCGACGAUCGAAAGAUGCAUAGUUGGCUCUCACAUGCUAAAUGCCAGUAGCGCCCUCCUUCGCUUGAAGUCAUGACAACCACAGUCCCUACUAGACCUGUUCAUCUUUUUUUUUUUUUUUGGAAUUCUCGGGUGCCAA`: “RBNS enrichment (R)” 0.766.
For `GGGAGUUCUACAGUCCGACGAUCGAAGAGAGAGAUAGGGUAUAGGCUGAUAUUGCCCCUCCUGUUUGGGUCCCAUCUACUGUGGUCCACUGAGCCCAAUUUGAUAUGUAAAUACACCUCAAAUUUGGAAAGUUUGGAAUUCUCGGGUGCCAA`, “RBNS enrichment (R)” read 0.459.
For `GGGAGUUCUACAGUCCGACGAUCAGCCUGGCCUGCCCAGCCCUGGUCAUCCAGCUGUACUGGCCCCUGGGGGGCCCCUUUGGGAGCAGGCCUGUGUAUCAGGUGACUUCUGUUGACCACUCUCUGAAUAGGCUUGGAAUUCUCGGGUGCCAA`, “RBNS enrichment (R)” read 0.243.

Series 3
Target: Interferon regulatory factor 7, full length, phosphomimetic (IRF7, Homo sapiens, UniProt Q92985, residues 1-503, S471D/S472D/S475D/S476D/S477D/S483D/S484D/S487D)
Sequence of UniProt Q92985 (whole entry, unmodified, looked up): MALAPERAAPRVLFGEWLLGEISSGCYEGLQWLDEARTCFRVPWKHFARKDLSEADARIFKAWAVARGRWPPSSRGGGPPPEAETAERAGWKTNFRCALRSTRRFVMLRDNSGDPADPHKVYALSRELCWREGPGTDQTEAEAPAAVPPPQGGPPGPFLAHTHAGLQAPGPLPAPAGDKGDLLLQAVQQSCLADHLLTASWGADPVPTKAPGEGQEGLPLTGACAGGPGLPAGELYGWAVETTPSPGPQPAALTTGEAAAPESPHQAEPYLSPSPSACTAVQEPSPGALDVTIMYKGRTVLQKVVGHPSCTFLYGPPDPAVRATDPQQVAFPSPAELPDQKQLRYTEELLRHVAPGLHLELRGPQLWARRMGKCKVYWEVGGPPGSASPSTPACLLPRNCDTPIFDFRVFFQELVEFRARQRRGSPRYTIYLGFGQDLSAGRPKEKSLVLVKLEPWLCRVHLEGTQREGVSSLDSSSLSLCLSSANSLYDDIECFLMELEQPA
Method: protein-binding microarray
Form: double-stranded DNA, one strand shown
Sample: in vitro
Concentration: 2200 nM top
Notes: 60-bp whole probe
Together with: salmon DNA 0.4 mg/ml
Reference: random background probes
Direction: higher = stronger binding
All sequences stand within: GCCTAGCAC … GTCTTGATTCGCTTGACGCTGCTG
Under “fitted relative affinity”, `TCAGAACTGAGTATCGATTAGTGCTAG` is recorded as -0.285 z-score.
`TTAGGTTTCGGTTCCGTTTAGTGCTAG`: “fitted relative affinity” 11.3 z-score.
`GACGGTCCCGGACTGGGGACGTGCTAG`: “fitted relative affinity” -1.04 z-score.
`GACGCTATCGGGTTTCGGGACGTGCTA` — result for “fitted relative affinity”: 1.84 z-score.
`GACGGTTTCGATTCCGGGACGTGCTAG` — result for “fitted relative affinity”: 9.6 z-score.
`TTAGATATCGGGATTGGATTAGTGCTA`: “fitted relative affinity” 0.17 z-score.
Under “fitted relative affinity”, `TACGGTATCGACTTTCGGGACGTGCTA` is recorded as 3.28 z-score.
`TCATCTCAGAATCTCTCACTGTGCTAG`: “fitted relative affinity” 0.841 z-score.
For `GACGGTCTCGACTATCGGGACGTGCTA`, “fitted relative affinity” read -0.466 z-score.
`GACTGTATCGGTCTCGGGACGTGCTAG` — result for “fitted relative affinity”: 0.134 z-score.
`TAAGGACTGGGTATCGGTTAGTGCTAG`: “fitted relative affinity” -0.273 z-score.
For `CTCATTTTCGTTTTGTGTCTGTGCTAG`, “fitted relative affinity” read 15.3 z-score.
Under “fitted relative affinity”, `GACGGTTTCGGACTGGGGAGGTGCTAG` is recorded as 3.44 z-score.
For `TACGGTATCGGACTGGGGACGTGCTAG`, “fitted relative affinity” read 0.0123 z-score.
Under “fitted relative affinity”, `CTAAAACTCTTTATTTAAGCGTGCTAG` is recorded as -0.433 z-score.
Under “fitted relative affinity”, `TCTGTTGCCCGTATCTAGGTGTGCTAG` is recorded as 1.43 z-score.
`AACGATTTCAGTTCCGAGACGTGCTAG`: “fitted relative affinity” 1.86 z-score.
Under “fitted relative affinity”, `TTAGGTTTCGCGTATCGGTTAGTGCTA` is recorded as 3.13 z-score.
`GTTTGTATATATTTTAACCCGTGCTAG`: “fitted relative affinity” 1.11 z-score.
`TTAGGTATCATTTTCCTTTAGTGCTAG`: “fitted relative affinity” 2.17 z-score.
`TCAAACTTCCCAATGGTACTGTGCTAG` — result for “fitted relative affinity”: 0.781 z-score.
Under “fitted relative affinity”, `TTAGATTTCGGGTATAGATTAGTGCTA` is recorded as 1.55 z-score.
`TCAACTTCTGTTTTTGCACTGTGCTAG`: “fitted relative affinity” 1.88 z-score.

Series 4
Target: Sal-like protein 4, full length isoform A (SALL4, Homo sapiens, UniProt Q9UJQ4, residues 1-1053)
Sequence of UniProt Q9UJQ4 (whole entry, looked up): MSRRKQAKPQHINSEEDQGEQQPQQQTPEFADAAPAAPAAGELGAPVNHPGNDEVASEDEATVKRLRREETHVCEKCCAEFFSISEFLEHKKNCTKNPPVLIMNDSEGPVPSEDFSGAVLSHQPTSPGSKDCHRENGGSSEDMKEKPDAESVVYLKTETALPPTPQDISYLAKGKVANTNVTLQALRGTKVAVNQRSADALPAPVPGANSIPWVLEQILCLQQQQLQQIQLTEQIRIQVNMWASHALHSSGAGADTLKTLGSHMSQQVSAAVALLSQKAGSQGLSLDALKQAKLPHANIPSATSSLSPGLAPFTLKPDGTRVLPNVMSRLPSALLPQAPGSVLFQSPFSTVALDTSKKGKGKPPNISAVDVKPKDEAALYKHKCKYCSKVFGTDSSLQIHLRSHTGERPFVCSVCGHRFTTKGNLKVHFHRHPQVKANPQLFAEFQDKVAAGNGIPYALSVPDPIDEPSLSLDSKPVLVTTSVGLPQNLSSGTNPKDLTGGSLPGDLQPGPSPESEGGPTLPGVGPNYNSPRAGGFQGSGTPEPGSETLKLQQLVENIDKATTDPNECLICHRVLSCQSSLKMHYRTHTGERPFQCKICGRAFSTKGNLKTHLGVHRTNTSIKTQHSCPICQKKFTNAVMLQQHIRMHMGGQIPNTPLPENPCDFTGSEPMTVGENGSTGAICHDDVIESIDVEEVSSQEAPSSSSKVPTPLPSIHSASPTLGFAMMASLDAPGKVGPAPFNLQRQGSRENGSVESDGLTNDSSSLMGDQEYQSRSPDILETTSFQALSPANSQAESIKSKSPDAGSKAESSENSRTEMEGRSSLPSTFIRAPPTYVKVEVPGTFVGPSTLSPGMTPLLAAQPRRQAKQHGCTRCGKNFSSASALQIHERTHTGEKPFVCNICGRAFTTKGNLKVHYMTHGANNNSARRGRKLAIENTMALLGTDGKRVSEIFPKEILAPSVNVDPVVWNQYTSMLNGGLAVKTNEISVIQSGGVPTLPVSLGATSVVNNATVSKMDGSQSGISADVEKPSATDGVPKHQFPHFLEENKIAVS
Method: universal PBM
Form: double-stranded DNA, one strand shown
Sample: in vitro
Concentration: 600 nM
Notes: 8-mer, flanks averaged, mean of replicates
Direction: higher = stronger binding
`CTATGCCC` gave an E-score of -0.102.
With `ATTCATTA` the E-score was 0.39.
`GCTACGTA` gave an E-score of 0.0337.
The E-score of `ACTCAGTA` is reported as 0.0363.
The E-score of `ATGGGCGG` is reported as -0.233.
`ACCTCGTA` gave an E-score of 0.152.
With `AACATGCG` the E-score was 0.0611.
For `GGGCCTCA`, the E-score was -0.347.
The E-score of `ACATGGGT` is reported as 0.107.
`CGTACAAG` has an E-score of 0.0821.
The E-score of `CCCTGGCC` is reported as -0.3.
`ATACAGCC` has an E-score of -0.032.
With `CGATATTC` the E-score was 0.0661.
With `GCTGCACC` the E-score was -0.277.
The E-score of `AACGCGTA` is reported as 0.0649.
The E-score of `CACCTAAG` is reported as -0.042.
With `ACGATACC` the E-score was 0.0303.
The E-score of `CATCATAG` is reported as 0.0964.
`AGTTACTA` has an E-score of 0.168.
For `CTCGTAAC`, the E-score was 0.018.
`AAAACTGG` gave an E-score of 0.0306.
`GGATCCAC` has an E-score of -0.228.
`AACCTTTA` gave an E-score of 0.12.
`AAAACCTC` has an E-score of 0.0235.
With `AGAGTCCG` the E-score was -0.164.

Some of these lines once more (series 1):
`CTGCTCCC` gave an E-score of -0.0139.
The E-score of `GACTGCCC` is reported as 0.102.
The E-score of `CCATGTCA` is reported as -0.0791.
The E-score of `AGGTGAGG` is reported as -0.0874.
The E-score of `GTAAGTGA` is reported as -0.0752.
The E-score of `TAAAGCCA` is reported as -0.0818.
`GCGAGCCA` gave an E-score of -0.0573.
`AGAAAACT` gave an E-score of -0.292.
For `ACCATTTA`, the E-score was -0.0848.
`CATGAGCG` gave an E-score of 0.233.
